Published values collected from several papers.
Parts stem from different laboratories: compare values within a part only. Substitutions count along the parent as printed.

Sample 1 — method: protein-binding microarray; molecule type: double-stranded DNA, one strand shown; sample: in vitro; tested at: 2200 nM top; notes: 60-bp whole probe; together with: salmon DNA 0.4 mg/ml; baseline: random background probes; reading: higher = stronger binding; shared flanks, not repeated: GCCTAGCAC … GTCTTGATTCGCTTGACGCTGCTG
Target: Interferon regulatory factor 7, full length, phosphomimetic (IRF7, Homo sapiens, UniProt Q92985, residues 1-503, S471D/S472D/S475D/S476D/S477D/S483D/S484D/S487D)
Sequence of UniProt Q92985 (whole entry, unmodified, looked up): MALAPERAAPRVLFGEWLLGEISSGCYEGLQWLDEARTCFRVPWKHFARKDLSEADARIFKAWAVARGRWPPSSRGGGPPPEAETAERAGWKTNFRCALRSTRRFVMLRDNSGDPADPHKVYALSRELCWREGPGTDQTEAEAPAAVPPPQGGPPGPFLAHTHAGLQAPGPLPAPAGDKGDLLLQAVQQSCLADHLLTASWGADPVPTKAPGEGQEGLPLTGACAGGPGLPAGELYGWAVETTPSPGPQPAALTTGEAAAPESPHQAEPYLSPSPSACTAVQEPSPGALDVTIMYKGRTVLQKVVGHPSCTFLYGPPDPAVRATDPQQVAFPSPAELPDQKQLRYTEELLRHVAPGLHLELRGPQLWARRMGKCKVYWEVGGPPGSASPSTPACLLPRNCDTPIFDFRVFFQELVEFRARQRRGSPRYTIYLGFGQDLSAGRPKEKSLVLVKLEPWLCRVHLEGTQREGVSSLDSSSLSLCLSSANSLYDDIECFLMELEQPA
Sequence | fitted relative affinity [z-score]
GACGATCTCAGACTGTAGACGTGCTAG | 0.124
TTAGATTTCGGTCTCGGTTAGTGCTAG | 3.57
GACGGTTCCCTTTTCCTGACGTGCTAG | 2.69
TTAGGACAGGGTATCGGTTAGTGCTAG | -0.28
GACGATATCGGGGTTCGAGACGTGCTA | 0.0863
GGGAATTTAGAAAATGGAAATGTGCTA | -1.09
TTAGGTATCGACACTGGGTCAGTGCTA | -0.252
TTAGAACTGGGGTTTCGTTTAGTGCTA | 2.92
GACGATTCCATTTTCGAGACGTGCTAG | 4.43
GACGATATCGGGTACCGAGACGTGCTA | -0.294
GACGGTTTCTGTTCCGGGACGTGCTAG | 4.81
ATGTATACACACTATAGTGAAGTGCTA | 0.489
TTTGGTTTCCTTCTCCTTTAGTGCTAG | 3.98
TTAGGTCTCCTCTTCCTTTAGTGCTAG | 1.16
ATAGAACTGAGACTGGATTAGTGCTAG | -0.447
GACGGACTGGGTTACGGGACGTGCTAG | -0.804
AGAGCTAAGTGAGTGTCATCGTGCTAG | -0.388
TTAGGTATCCATATCCTTTAGTGCTAG | 0.791
CACTCTTGCTTTTTAGATCGGTGCTAG | 1.53
TTAGGTCTCTGACTGGGTTAGTGCTAG | -0.252
GAAGATATCAGTTTCGAGACGTGCTAG | 3.6
GACAGTTTCCTACTGCTGACGTGCTAG | 1.9
TCACCAATCTCTCTTCAACTGTGCTAG | 1.35

Sample 2 — method: RNA Bind-n-Seq; molecule type: RNA; sample: in vitro; tested at: not given; baseline: input RNA pool; reading: higher = stronger binding
Target: RING finger protein unkempt homolog, zinc fingers 1-6, GST-SBP tag (UNK, Homo sapiens, UniProt Q9C0B0, residues 30-357)
Sequence of UniProt Q9C0B0 (30-357, looked up): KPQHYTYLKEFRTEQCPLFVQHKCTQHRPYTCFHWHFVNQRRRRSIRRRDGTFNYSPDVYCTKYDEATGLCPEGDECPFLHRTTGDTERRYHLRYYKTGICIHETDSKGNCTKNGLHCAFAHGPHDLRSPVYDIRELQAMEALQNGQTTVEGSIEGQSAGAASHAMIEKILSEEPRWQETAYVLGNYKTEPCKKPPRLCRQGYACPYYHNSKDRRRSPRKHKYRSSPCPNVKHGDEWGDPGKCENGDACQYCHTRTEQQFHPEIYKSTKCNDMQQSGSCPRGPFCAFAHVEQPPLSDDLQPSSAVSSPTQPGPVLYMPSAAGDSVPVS
Notes: RNA with constant flanks, human and mouse sites, ends assumed
Shared flanks, not repeated: GGGAGUUCUACAGUCCGACGAUC … CAACAGAGGAUUGAGCAUCA
Sequence | bound/input enrichment [ratio]
GUGCUUCAGGUAGAUUCUGGUGCUAAUGCCACUGCCACAGCUCAGUGGUUUGGGGGCAAUAUUAGUGCUCCCUUCGAGGAUGCCUGCCCUCCUGAGGUGGAUUUUCUCAAGCAAGAUUGC | 0.179
GAAGGAGAGGAAUACUAAAUUAAAUGUCACAAGGUGCUGCUUCCACAGGGAUGUUUAUUGUGUUCCAACACAGAAAGUUGUGGUCUGAUCAGUUAAUUUGUAUGUGGCAAUGUGUGCUUU | 0.351
AAUAGUGGAGAAGAAUUAGAAUCCUACAAGGGACACUUUGGUCCUAUUCACUGUGUGAGAUUUAGUCCUGAUGGAGAACUCUAUGCCAGUGGUUCAGAAGAUGGAACAUUGAGACUAUGG | 1.11
GCUGCAUACAUAGAAAAUGCCAAACAGGUUGGCCGCCUUGAGAAUGCAAUCGGUUGGUAUCAUAGCCACCCUGGUUAUGGCUGCUGGCUCUCCGGGAUUGAUGUUAGUACACAGAUGCUG | 0.922
CUAUGUAAAACGACAGCCUUACAUAGUUUCCUGUCAACACAAAUUUAGGAUAUAAUACAUUUUAGAAAUUUAUUAUUUUUCAAUUAUUUUUGGUUUUUUUACUACUUACCUUGUAAAAAU | 68.6
UUAGGUUGGAUGCAUCACACUGUGGAUCUCCUGGGAGAUAAGGCCACCAAGGAAAGUUAUGCUAUUCAGUAUCUCCAGAAGUCCUUGGAAGCAGAUCCAAAUUCUGGCCAGUCCUGGUAU | 0.157
CAGAGGUGGAGUGAAGUGGAUUGUUCCAUCAGGAACUCAAUCUUCACGACACUGAGCAAUGUGUUGCAGUAAACAAGGAAGAAAUCCCUGCUCUUUGUUCUCCCUACCCUUAAUUGAACA | 0.138
AGGCAGGAUGGAAGUGACACUGUAGGGUUUUUUGUUUUUUGGGUUUUUUUUUUUUUUUUUUGUUUUUUUUGUUUUUUGGUGUGUGUGUAAAAAUUGUGUCGUGAUGGAAUUUUUGGCGUG | 9.31
UACUGGAGGUCACUAGUUUUGUGAAGAGAUAUAGAACUUCUGGUUGAUGCUUCCUAGCGUUUAGGAUACGAGUUAUUGCACUCUACUUCCUAGCCUCUACUUUUAACUUGUAAGGCCUGC | 0.177
UUGGAUUCAUUAGCAGAAAGCCCUGAGUCUGACUUUAUGUCUGCUGUGAAUGAGUUUGUGAUAGAAGAAAAUUUAUCGUCUCCAAACCCUAUAAGUGAUCCACAAAGUCCAGAAAUGAUG | 0.13
GCGGAGCUUCUGAAAAAUGCAGAUGAGCUAGUCAAACAGAAAAUUCAUCCAACAUCAGUUAUUAGUGGCUAUCGUCUUGCCUGCAAGGAAGCGGUGCGUUAUAUCAAUGAGAACCUGAUU | 0.2

Sample 3 — target: CCNB2, cyclin fold, Cln2 fusion (human); method: yeast growth competition, sequencing; sample: yeast; notes: weak parent motif; baseline: not given; reading: higher = stronger binding
Starting sequence: GMNC docking peptide (human); KNAKRNLSSEFAN; partner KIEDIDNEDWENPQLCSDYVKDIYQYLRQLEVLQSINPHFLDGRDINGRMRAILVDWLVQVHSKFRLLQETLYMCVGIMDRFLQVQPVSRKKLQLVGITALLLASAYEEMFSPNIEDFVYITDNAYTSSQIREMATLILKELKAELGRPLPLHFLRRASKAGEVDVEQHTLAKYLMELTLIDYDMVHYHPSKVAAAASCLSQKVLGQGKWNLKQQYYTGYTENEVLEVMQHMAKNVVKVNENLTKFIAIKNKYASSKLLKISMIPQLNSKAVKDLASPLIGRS
Substitution | normalised enrichment score
R5W | 0.397
S9H | 0.485
S9A | 0.393
A12N | 0.658
N2R | 0.691
A12G | 0.187
E10P | -0.0681
E10A | 0.244
E10M | 0.464
E10H | 0.261
A3D | 0.134
L7Y | 0.45
R5P | -0.403
A12E | 0.748
A12K | 0.692
R5K | 0.301
N6T | 0.423
A3H | 0.404
N6I | 0.241
L7G | 0.365
A3K | 0.515
N6R | 0.476
E10G | 0.47
L7A | 0.774
F11R | 0.192

Sample 4 — method: RNA Bind-n-Seq; molecule type: RNA; sample: in vitro; tested at: 200 nM; notes: whole 134-nt RNA, ends assumed; together with: 150 mM LiCl; baseline: input library; reading: higher = stronger binding; all molecules: 7-deaza-guanosine replaces G
Target: Ras GTPase-activating protein-binding protein 1, full length (G3BP1, Homo sapiens, UniProt Q13283)
Sequence of UniProt Q13283 (whole entry, looked up): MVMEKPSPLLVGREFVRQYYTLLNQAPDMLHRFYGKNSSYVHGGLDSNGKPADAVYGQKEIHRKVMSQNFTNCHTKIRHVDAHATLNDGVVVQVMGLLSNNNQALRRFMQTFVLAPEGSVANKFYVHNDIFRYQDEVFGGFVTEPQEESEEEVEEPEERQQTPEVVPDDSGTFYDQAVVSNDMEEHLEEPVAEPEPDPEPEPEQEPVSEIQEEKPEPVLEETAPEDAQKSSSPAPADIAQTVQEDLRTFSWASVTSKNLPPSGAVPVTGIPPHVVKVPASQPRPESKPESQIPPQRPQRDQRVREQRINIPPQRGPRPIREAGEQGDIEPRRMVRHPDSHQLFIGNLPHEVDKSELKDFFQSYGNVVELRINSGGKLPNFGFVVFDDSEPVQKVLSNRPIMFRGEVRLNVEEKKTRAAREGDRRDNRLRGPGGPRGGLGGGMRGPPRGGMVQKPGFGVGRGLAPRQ
Shared flanks, not repeated: GGGAGUUCUACAGUCCGACGAUC … UGGAAUUCUCGGGUGUCAAGG
Sequence | log2 enrichment
GUCCUGUGCUACACAUCGUAUGUACCGAAUCAAAGUGUGUGUGUGUGUGUGUGUGUAAAAAAGUAUUAUGUUACGCCGUUCGGAUCUGCA | -1.07
UUCAGUAAAAUGGCAGAAGAGAAACUGACCCACAAAAUGGAAGCUAAUAAAGAGAACCGAGAGGCACAAAUGGCUGCCAAACUGGAACGU | 0.339
CUCAAGUCCUGUGCUACACAUCGUAUGUACCGAAUCGGAAGGGAAGGAAGGGGAAAGUAUUAUGUUACGCCGUUCGGAUCUGCACUUCCA | 0.00334
UUACACCAAUGAGAAGCUGCAGCAGCUCUUCAACCACACCAUGUUCAUCCUGGAGCAGGAGGAGUACCAGCGCGAGGGCAUCGAGUGGAA | 0.41
CUGUGCUACACAUCGUAUGUACCGAAUCGGGGCCCCCCCGGCCCCCCCGGCCCCCCCGGGGAAAGUAUUAUGUUACGCCGUUCGGAUCUG | 0.394
UCAAGUCCUGUGCUACACAUCGUAUGUACCGAAUCGGAAAAAAAGGAGGUUUGGAAAGUAUUAUGUUACGCCGUUCGGAUCUGCACUUCC | -1.13
CACAGACAACACGCACCCACACAGACACAGAGGGAAGGGGUUGGGAUGGGGACAGGGUGCACAGCGGGGCGGGGUAGGACCCCAGCCCCU | -0.211
AAUGUGUCCUCCCUGUCCAAAUUGGGAAUGACUUAAUGUCAAUUUGUUUGUUGGUUGUUUUAAUAAUACUUCCUUAUGUAGCCAUUAAGA | -0.126
CUCAAGUCCUGUGCUACACAUCGUAUGUACCGAAUCGGGUUGGGGUUGGGUUGGAAAGUAUUAUGUUACGCCGUUCGGAUCUGCACUUCC | 0.35
UGUGCUACACAUCGUAUGUACCGAAUCGGGGUUUUUUUGGGGUUUUUUUGGGGUUUUUUUGGGAAAGUAUUAUGUUACGCCGUUCGGAUC | 2.02
CACAGACAACACGCACCCACACAGACACAGAGGGAAGGGGUUGGGAUGGGGACAGGGUGCACAGCAGGGCGGGGUAGGACCCCAGCCCCA | -0.143

Sample 5 — method: protein binding microarray; molecule type: double-stranded DNA, one strand shown; sample: in vitro; tested at: not given; baseline: not given; reading: higher = stronger binding
Target: Histone acetyltransferase KAT6A, both winged helices, GST fusion (KAT6A, Homo sapiens, UniProt Q92794, residues 1-181)
Notes: 8-mer, flanks averaged, mean of 2 arrays, mostly near background
Construct (chain): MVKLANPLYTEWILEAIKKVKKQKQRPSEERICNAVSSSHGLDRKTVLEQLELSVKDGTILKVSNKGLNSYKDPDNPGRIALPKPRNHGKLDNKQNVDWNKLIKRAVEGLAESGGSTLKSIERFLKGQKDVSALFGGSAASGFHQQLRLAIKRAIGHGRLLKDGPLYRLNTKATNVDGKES
Sequence | E-score
CAAGGTGC | -0.0339
CCGCACGA | 0.134
CCATTTCC | 0.0463
ACCAATCC | -0.04
ACTGTTTA | -0.0201
CATGAACA | -0.0146
ATTTTCTA | -0.198
CGGAACTC | 0.112
ACAAGTCA | 0.013
TCGAACGA | 0.107
TATCTGAA | -0.0866
GCATAACC | 0.0427
ACAGGGTA | -0.156
GCGTCGGA | 0.289
CCACCCGG | 0.139
CTTCGTGC | -0.0215
CTCGCCGC | 0.287
ATTCGGCC | 0.0939
GCCAAATA | -0.124
CGCTTTAC | 0.187
CATCATGG | -0.0618
GTTCCGCA | 0.215

A few entries again (sample 5):
Sequence | E-score
GCGTCGGA | 0.289
CCACCCGG | 0.139
TCGAACGA | 0.107
ATTCGGCC | 0.0939
ACTGTTTA | -0.0201
CCATTTCC | 0.0463
TATCTGAA | -0.0866
CGCTTTAC | 0.187
ACAGGGTA | -0.156
CGGAACTC | 0.112
GCATAACC | 0.0427
GTTCCGCA | 0.215
CAAGGTGC | -0.0339
